Values quoted from earlier work, collected from citations in different studies.
± marks the error that the study gave.
CNR1: Cannabinoid receptor 1 (CNR1, Homo sapiens, UniProt P21554)
UniProt P21554, sequence (whole entry, looked up): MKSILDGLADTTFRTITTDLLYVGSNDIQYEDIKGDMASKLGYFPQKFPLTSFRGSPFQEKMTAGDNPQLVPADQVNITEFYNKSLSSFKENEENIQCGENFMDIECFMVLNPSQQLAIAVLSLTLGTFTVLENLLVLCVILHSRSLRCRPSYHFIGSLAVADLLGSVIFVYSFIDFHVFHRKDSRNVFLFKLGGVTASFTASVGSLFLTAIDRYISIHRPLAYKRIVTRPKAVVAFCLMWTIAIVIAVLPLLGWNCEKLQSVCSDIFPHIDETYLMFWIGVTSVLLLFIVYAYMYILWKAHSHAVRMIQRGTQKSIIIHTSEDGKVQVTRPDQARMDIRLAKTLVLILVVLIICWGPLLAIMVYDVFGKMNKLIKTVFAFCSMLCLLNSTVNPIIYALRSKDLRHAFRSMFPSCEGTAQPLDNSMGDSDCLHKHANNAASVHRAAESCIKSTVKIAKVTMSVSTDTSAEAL
UniProt Q14974, sequence (whole entry, looked up): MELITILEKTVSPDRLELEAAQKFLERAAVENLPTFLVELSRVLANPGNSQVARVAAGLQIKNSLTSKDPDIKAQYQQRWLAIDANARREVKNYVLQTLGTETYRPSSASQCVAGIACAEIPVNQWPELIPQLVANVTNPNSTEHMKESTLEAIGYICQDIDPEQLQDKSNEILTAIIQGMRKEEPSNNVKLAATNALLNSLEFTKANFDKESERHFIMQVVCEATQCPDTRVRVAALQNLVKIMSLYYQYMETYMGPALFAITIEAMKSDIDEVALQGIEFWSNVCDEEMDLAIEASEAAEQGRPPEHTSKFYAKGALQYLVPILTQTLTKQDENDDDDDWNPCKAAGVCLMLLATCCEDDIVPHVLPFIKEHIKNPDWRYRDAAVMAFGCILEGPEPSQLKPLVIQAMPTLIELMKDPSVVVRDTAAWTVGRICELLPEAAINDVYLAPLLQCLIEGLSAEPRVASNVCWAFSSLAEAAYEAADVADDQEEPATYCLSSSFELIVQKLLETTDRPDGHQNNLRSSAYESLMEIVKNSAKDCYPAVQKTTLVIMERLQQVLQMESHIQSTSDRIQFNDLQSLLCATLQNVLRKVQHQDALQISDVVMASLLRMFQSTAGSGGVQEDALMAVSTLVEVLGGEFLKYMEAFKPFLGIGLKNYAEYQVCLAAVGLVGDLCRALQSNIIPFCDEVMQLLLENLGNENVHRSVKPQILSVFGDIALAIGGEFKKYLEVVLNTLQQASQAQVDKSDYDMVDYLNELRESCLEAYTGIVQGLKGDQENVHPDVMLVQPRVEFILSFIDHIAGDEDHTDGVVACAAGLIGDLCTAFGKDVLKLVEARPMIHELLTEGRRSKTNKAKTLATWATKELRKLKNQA
UniProt Q86U86, sequence (whole entry, looked up): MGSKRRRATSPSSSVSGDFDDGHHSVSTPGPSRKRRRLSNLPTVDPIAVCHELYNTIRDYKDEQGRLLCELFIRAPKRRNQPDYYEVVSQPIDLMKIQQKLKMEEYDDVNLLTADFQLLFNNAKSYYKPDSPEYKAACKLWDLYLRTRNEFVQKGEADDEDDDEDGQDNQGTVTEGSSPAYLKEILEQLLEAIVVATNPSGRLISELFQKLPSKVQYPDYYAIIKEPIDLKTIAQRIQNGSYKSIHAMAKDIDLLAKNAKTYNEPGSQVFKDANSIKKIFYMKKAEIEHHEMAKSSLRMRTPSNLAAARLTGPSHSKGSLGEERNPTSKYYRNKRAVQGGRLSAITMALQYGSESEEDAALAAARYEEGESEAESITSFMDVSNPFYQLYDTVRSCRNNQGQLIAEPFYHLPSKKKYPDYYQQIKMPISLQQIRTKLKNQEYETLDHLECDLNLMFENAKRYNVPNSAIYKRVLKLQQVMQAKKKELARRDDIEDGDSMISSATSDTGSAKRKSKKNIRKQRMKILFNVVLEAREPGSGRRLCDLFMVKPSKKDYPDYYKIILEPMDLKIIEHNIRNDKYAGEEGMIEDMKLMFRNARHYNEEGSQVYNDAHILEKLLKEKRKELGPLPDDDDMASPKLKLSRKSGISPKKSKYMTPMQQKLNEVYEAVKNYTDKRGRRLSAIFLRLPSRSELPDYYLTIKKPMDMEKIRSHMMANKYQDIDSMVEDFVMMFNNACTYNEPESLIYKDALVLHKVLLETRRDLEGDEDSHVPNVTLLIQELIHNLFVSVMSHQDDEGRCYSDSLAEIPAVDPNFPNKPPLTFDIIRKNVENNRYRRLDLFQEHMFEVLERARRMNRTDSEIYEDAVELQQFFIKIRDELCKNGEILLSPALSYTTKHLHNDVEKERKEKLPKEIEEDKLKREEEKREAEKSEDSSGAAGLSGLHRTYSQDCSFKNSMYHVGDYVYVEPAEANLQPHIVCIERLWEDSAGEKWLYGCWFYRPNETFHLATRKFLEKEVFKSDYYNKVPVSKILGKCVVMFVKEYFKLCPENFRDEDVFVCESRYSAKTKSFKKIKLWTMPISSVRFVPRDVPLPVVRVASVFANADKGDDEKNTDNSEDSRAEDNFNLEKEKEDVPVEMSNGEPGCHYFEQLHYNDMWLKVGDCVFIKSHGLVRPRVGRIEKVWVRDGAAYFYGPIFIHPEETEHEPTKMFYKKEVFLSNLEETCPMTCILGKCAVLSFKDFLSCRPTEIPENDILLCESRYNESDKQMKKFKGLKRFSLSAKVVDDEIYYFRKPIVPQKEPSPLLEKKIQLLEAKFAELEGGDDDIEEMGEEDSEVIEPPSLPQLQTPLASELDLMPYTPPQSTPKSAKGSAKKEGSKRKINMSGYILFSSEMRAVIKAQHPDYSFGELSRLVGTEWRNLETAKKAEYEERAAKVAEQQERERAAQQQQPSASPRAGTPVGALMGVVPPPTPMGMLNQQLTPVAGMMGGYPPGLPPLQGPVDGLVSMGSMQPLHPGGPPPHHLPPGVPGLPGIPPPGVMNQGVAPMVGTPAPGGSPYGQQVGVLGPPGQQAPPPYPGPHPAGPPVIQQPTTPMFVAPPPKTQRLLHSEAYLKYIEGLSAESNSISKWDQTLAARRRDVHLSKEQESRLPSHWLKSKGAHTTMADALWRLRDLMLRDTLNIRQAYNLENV
UniProt P27338, sequence (whole entry, looked up): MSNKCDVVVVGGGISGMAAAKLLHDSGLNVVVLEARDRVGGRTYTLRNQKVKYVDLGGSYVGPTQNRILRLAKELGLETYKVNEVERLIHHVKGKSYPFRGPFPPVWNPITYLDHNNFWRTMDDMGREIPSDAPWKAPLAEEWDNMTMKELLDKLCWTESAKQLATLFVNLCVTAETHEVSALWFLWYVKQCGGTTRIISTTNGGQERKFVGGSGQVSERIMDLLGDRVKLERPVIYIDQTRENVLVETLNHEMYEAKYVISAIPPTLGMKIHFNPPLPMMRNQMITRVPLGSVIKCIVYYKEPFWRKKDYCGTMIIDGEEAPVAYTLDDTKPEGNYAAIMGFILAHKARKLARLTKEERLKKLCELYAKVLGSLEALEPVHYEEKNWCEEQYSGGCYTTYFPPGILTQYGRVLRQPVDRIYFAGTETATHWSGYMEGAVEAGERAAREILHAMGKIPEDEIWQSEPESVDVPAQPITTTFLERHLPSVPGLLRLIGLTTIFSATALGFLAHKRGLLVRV
UniProt P22303, sequence (whole entry, looked up): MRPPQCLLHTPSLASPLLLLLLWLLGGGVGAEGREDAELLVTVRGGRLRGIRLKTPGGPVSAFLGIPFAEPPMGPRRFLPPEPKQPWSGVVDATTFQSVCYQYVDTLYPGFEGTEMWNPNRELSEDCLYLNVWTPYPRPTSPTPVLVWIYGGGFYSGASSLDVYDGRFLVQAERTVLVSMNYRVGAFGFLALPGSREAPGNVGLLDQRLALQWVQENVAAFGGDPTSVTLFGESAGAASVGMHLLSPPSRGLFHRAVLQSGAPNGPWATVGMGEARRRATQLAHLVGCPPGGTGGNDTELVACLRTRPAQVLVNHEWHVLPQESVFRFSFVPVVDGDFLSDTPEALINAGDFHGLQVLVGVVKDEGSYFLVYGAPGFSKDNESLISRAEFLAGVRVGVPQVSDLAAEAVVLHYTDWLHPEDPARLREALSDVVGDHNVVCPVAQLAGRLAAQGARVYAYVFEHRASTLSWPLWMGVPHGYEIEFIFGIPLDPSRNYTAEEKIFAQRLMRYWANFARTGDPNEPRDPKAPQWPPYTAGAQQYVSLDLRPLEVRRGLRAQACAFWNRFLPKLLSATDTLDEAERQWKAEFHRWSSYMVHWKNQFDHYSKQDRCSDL
UniProt Q16740, sequence (whole entry, looked up): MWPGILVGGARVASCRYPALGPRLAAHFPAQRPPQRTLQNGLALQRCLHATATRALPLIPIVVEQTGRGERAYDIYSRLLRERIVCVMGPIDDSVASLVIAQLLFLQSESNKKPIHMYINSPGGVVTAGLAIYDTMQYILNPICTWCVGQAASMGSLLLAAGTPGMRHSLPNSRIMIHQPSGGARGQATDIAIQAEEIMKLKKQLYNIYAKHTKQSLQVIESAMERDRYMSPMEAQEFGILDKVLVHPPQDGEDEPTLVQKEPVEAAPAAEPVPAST
UniProt P21397, sequence (whole entry, looked up): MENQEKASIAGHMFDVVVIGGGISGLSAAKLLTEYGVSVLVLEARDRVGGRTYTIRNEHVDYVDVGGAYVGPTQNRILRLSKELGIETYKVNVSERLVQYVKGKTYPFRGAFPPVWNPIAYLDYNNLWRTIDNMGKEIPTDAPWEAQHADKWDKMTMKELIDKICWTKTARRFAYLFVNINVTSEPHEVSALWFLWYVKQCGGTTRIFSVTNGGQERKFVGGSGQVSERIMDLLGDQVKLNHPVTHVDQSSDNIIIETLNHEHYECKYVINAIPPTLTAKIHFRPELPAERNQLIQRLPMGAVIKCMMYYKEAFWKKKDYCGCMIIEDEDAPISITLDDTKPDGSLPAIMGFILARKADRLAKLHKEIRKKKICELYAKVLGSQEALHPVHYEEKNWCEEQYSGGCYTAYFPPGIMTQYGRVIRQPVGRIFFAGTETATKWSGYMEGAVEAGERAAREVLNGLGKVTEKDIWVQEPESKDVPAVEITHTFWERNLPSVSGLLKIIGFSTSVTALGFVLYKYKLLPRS

| SMILES | target | test | system | setting | endpoint | result |
| --- | --- | --- | --- | --- | --- | --- |
| CC[C@H](C)[C@H](NC(=O)[C@@H]1CCCN1C(=O)[C@@H]1CCCN1C(=O)[C@@H]1CCCN1C(=O)[C@H](C)NC(=O)[C@@H]1CCCN1C(=O)[C@H](CCCNC(=N)N)NC(=O)[C@H](CC(C)C)NC(=O)[C@H](CO)NC(=O)[C@@H]1CCCN1C(=O)[C@H](C)NC(=O)[C@H](CCC(=O)O)NC(=O)[C@H](CCC(=O)O)NC(=O)[C@H](CCCNC(=N)N)NC(=O)[C@H](CCCCN)NC(=O)[C@H](CCCCN)NC(=O)[C@H](CC(=O)O)NC(=O)[C@H](CC(C)C)NC(=O)[C@@H]1CCCN1C(=O)[C@H](CCCNC(=N)N)NC(=O)[C@H](Cc1c[nH]cn1)NC(=O)CN)C(=O)N[C@@H](CO)C(=O)NCC(=O)NCC(=O)NCC(=O)N[C@@H](Cc1ccc(O)cc1)C(=O)N[C@@H](CCCNC(=N)N)C(=O)O | VE-cadherin | binding |  |  | Kd | 267000 nM |
| CCCCCCCCCc1c(C(=O)NCCc2ccc(N3CCCCC3)cc2)[nH]c2ccc(Cl)cc12 | CNR1 | allosteric modulator, radioligand binding |  | together with: [3H]CP55,940 | Kb | 260 nM |
| COCC1OC(OC2C3=C(C(C)C)CCC3(C)C=C3C(CCC3(O)COC)C(C)C2O)C(O)C2OC3OC12OC3(C)C1CO1 (centres unmarked) | 14-3-3 protein zeta/delta, with phosphorylated C-RAF (YWHAZ, Homo sapiens, UniProt P63104) |  |  |  | EC50 | 65400 ± 7700 nM |
| CN(CCCCCNc1c2c(nc3ccccc13)CCCC2)C1CCC(c2ccc(Cl)c(Cl)c2)c2ccccc21 (centres unmarked) | MAOB (Homo sapiens, UniProt P27338) | inhibitor |  |  | IC50 | 31 nM |
| CSCC[C@H](NC(=O)[C@H](Cc1c[nH]c2ccccc12)NC(=O)[C@H](Cc1c[nH]c2ccccc12)NC(=O)[C@H](CCC(=O)O)NC(=O)[C@@H]1CCCN1C(=O)[C@H](CCCNC(=N)N)NC(=O)CNC(=O)[C@@H](N)C(C)C)C(=O)N[C@@H](CC(=O)O)C(=O)N[C@@H](Cc1ccc(O)cc1)C(=O)N[C@@H](CCC(N)=O)C(=O)N[C@@H](CCCCN)C(=O)N[C@@H](CCCNC(=N)N)C(=O)N[C@@H](Cc1ccc(O)cc1)C(=O)NCC(=O)O | MRGPRX1 (Homo sapiens, UniProt Q96LB2) | agonist | HEK293 expressing target |  | EC50 | 14 nM |
| CC(=O)N[C@H](C(=O)N[C@H](C(=O)N[C@@H](Cc1ccccc1)C(=O)N[C@H](C(=O)N[C@@H](CO)C(=O)N[C@@H](Cc1c[nH]c2ccccc12)C(=O)N[C@@H](CCC(=O)O)C(=O)N[C@@H](CCC(=O)O)C(=O)N[C@@H](Cc1ccc(O)cc1)C(=O)N[C@@H](CC(C)C)C(=O)N[C@@H](CC(=O)O)C(=O)N[C@@H](Cc1c[nH]c2ccccc12)C(=O)N[C@H](C(N)=O)C(C)C)[C@@H](C)O)C(C)C)[C@@H](C)O | PCSK9 (Homo sapiens, UniProt Q8NBP7) | binding, biolayer interferometry |  |  | Kd | 660 ± 110 nM |
| CC(C)C[C@@H]1NC(=O)[C@H](CCCNC(=N)N)NC(=O)[C@H](Cc2c[nH]c3ccccc23)NC(=O)[C@H](CC(C)C)NC(=O)[C@H](CC(N)=O)NC(=O)[C@](C)(NC(=O)[C@H](Cc2ccccc2)NC(=O)[C@@H](NC(=O)[C@H](CCC(N)=O)NC(=O)[C@H](CCC(N)=O)NC(=O)[C@H](CO)NC(=O)[C@H](CCC(N)=O)NC(=O)CCNC(=S)Nc2ccc3c(c2)C(=O)OC32c3ccc(O)cc3Oc3cc(O)ccc32)[C@@H](C)O)CCCCCCC=CCCC[C@@](C)(C(=O)N[C@@H](CCC(N)=O)C(=O)N[C@@H](CC(N)=O)C(N)=O)NC(=O)[C@H](CC(C)C)NC1=O | HDM2 |  |  |  | Kd | 55 ± 11 nM |
| C[C@H](NC(=O)[C@H](CCC(N)=O)NC(=O)[C@H](C)NC(=O)[C@H](CCCCN)NC(=O)[C@H](CCC(N)=O)NC(=O)[C@H](C)NC(=O)[C@H](CCCCN)NC(=O)[C@H](CCC(N)=O)NC(=O)[C@H](C)NC(=O)[C@H](CCC(N)=O)NC(=O)[C@H](CCCCN)NC(=O)[C@H](C)NC(=O)[C@H](CCC(N)=O)NC(=O)[C@H](CCCCN)NC(=O)[C@H](C)NC(=O)[C@H](CCC(N)=O)NC(=O)[C@H](C)NC(=O)[C@H](CCCCN)NC(=O)[C@H](CCC(N)=O)NC(=O)[C@H](C)NC(=O)[C@H](CCCCN)NC(=O)[C@H](CO)NC(=O)[C@H](Cc1ccc(O)cc1)NC(=O)CNC(=O)CNC(=O)CN)C(=O)N[C@@H](CCCCN)C(=O)N[C@@H](CCC(N)=O)C(=O)N[C@@H](C)C(=O)N[C@@H](CCCCN)C(=O)N[C@@H](CCC(N)=O)C(=O)O | heparin | binding |  |  | Kd | 640 nM |
| CC(=O)N[C@H]1[C@@H](OC[C@H](NC(=O)CNC(=O)[C@@H]2CCCN2C(=O)[C@H](C)NC(=O)[C@@H]2CCCN2C(=O)[C@@H](N)CCCNC(=N)N)C(=O)N[C@H](C(=O)N[C@@H](C)C(=O)N2CCC[C@H]2C(=O)N2CCC[C@H]2C(=O)N[C@@H](C)C(=O)N[C@@H](Cc2c[nH]cn2)C(=O)NCC(=O)O)[C@@H](C)O)O[C@H](CO)[C@H](O)[C@@H]1O | 14 A monoclonal antibody | SPR |  |  | Kd | 439 nM |
| C#CCNc1ccc(/C=C2\SC(=O)N(CN(C)CCC(Oc3ccc(C(F)(F)F)cc3)c3ccccc3)C2=O)cc1 (centres unmarked) | MAOA (Homo sapiens, UniProt P21397) | inhibitor |  |  | IC50 | 181 nM |
| CCN(CC)CCCC[C@H](NC(=O)[C@H](CC(C)C)NC(=O)[C@H](C)NC(=O)[C@H](Cc1ccccc1)NC(=O)c1ccc(C(C)(C)C)cc1)C(=O)N[C@@H](CO)C(=O)OC | human CBX1 chromodomain |  |  |  | Kd | > 100000 nM |
| O=C(C=CN1C2CCC1c1ncnc(NC3CC3)c1C2)c1ccccc1O (centres unmarked) | Protein polybromo-1, BD5 (PBRM1, Homo sapiens, UniProt Q86U86) | binding |  |  | Kd | 30 nM |
| CC1(C)S[C@H]2CS[C@H](CS)N2[C@@H]1C(=O)O | VIM-2 (Escherichia coli, UniProt Q5U7L7) | inhibitor |  |  | Ki | 6000 ± 1000 nM |
| C=C(C)C12OC3(c4ccccc4)OC1C1C4OC4(CO)C(O)C4(O)C(=O)C(C)=CC4C1(O3)C(C)C2OC(=O)c1ccccc1 (centres unmarked) | KPNB1 (Homo sapiens, UniProt Q14974) | binding, SPR |  |  | Kd | 229 nM |
| COc1cc(/C=C/c2nnc(-c3ccc(C(F)(F)F)cc3)o2)ccc1O | ACHE (Homo sapiens, UniProt P22303) |  |  |  | IC50 | 55 ± 3 nM |
| CCCCCCCc1c(C(=O)NCCc2ccc(N3CCCCC3)cc2)[nH]c2ccc(Cl)cc12 | CNR1 | allosteric modulator, radioligand binding |  | together with: [3H]CP55,940 | Kb | 651 nM |
| Cn1c2c(c(=O)n(Cc3ccc(Cl)cc3)c1=O)CN(Cc1cccc(C#N)c1)CC2 | CLPP (Homo sapiens, UniProt Q16740) | enzyme activity |  |  | EC50 | 120 nM |

Excerpt of the above:
| SMILES | target | test | system | setting | endpoint | result |
| --- | --- | --- | --- | --- | --- | --- |
| CCN(CC)CCCC[C@H](NC(=O)[C@H](CC(C)C)NC(=O)[C@H](C)NC(=O)[C@H](Cc1ccccc1)NC(=O)c1ccc(C(C)(C)C)cc1)C(=O)N[C@@H](CO)C(=O)OC | human CBX1 chromodomain |  |  |  | Kd | > 100000 nM |
| O=C(C=CN1C2CCC1c1ncnc(NC3CC3)c1C2)c1ccccc1O (centres unmarked) | Protein polybromo-1, BD5 (PBRM1, Homo sapiens, UniProt Q86U86) | binding |  |  | Kd | 30 nM |
| CC1(C)S[C@H]2CS[C@H](CS)N2[C@@H]1C(=O)O | VIM-2 (Escherichia coli, UniProt Q5U7L7) | inhibitor |  |  | Ki | 6000 ± 1000 nM |
